Experimental data gathered from unrelated publications.
Each numbered part is a random draw from the data of one study; scales do not carry over between parts.

Sample 1 — target: human cyclin B1; read-out: peptide binding; method: yeast competitive growth sequencing; molecule type: peptide; organism: Saccharomyces cerevisiae; strain: cyclin B1-Cln2 fusion; tested at: concentration not given; setting: peptide tiling library; direction: direction not given
`VLLKRLQDVVSERANH`: “binding enrichment score” 0.098.
`EAAPPTQEAQGETEPT` — result for “binding enrichment score”: 1.29.
For `TSPGPVLLHPSPSTTQ`, “binding enrichment score” read 0.152.
Under “binding enrichment score”, `NFETPEAETPIRSPFK` is recorded as 0.38.
Under “binding enrichment score”, `CFRCLLFSFSGRSGVE` is recorded as -0.535.
`EPKTLFLGAGDFQF`: “binding enrichment score” 0.438.
`TARRIFQEPTEPKTKA` — result for “binding enrichment score”: 0.564.
Under “binding enrichment score”, `IVLICAKRSLCAAFSV` is recorded as -0.0182.
Under “binding enrichment score”, `GQLVIPLDELTLDTSF` is recorded as 0.986.
For `DVSERGYVILPNDYFE`, “binding enrichment score” read 0.151.
`EPRNLLSLFEDTLDPT` — result for “binding enrichment score”: 0.783.
Under “binding enrichment score”, `KRCATPVIIDEILPSK` is recorded as 0.0649.
`SSEVARHLLFQSHM`: “binding enrichment score” 0.268.

Sample 2 — method: protein binding microarray; molecule type: double-stranded DNA, one strand shown; medium: in vitro; tested at: not given; relative to: not given; direction: higher = stronger binding
Target: Histone acetyltransferase KAT6A, winged helix 2, GST fusion (KAT6A, Homo sapiens, UniProt Q92794, residues 85-181)
Setting: 8-mer, flanks averaged, mean of 2 arrays, mostly near background
Target sequence (chain): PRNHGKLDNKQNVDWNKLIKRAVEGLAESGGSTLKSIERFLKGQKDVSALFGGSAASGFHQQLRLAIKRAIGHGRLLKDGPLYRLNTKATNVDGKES
The E-score of `ATCGCTCC` is reported as -0.0295.
`ACTTAGCC` has an E-score of 0.0392.
With `ACTCTGCT` the E-score was 0.0605.
With `CATTTTAA` the E-score was 0.0481.
With `ACCTGGAA` the E-score was 0.0521.
`CTGTGAAC` gave an E-score of 0.0242.
The E-score of `AGCTGTTG` is reported as 0.0519.
For `CTGCACGA`, the E-score was 0.0299.
For `GTAAGCTA`, the E-score was 0.00077.
With `AAGTTCCG` the E-score was -0.0625.
With `CCGTCAAG` the E-score was 0.062.
The E-score of `AAGTGGGG` is reported as -0.194.
`CCGCGCAG` has an E-score of 0.225.
For `GTAGGACA`, the E-score was 0.21.
For `ACTGTCCC`, the E-score was -0.0673.
For `AAACTAGG`, the E-score was 0.0091.

Sample 3 — method: RNA Bind-n-Seq; molecule type: RNA; medium: in vitro; tested at: not given; relative to: input RNA pool; direction: higher = stronger binding
Target: RING finger protein unkempt homolog, zinc fingers 1-6, GST-SBP tag (UNK, Homo sapiens, UniProt Q9C0B0, residues 30-357)
Setting: RNA with constant flanks, human and mouse sites, ends assumed
All sequences stand within: GGGAGUUCUACAGUCCGACGAUC … CAACAGAGGAUUGAGCAUCA
Residues (chain): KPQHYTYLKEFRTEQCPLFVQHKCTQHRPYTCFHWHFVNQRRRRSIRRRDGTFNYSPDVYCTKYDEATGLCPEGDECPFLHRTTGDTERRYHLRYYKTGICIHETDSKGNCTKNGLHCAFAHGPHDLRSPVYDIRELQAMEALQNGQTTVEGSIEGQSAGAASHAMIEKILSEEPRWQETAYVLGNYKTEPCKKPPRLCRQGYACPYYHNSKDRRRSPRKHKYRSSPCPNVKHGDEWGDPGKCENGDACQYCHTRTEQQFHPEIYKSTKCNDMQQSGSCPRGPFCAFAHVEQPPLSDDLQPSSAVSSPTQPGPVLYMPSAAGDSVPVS
With `GAUUACCUGAGGUGGGUGAGCAUCAGUGGGUUCUUGGAUGACUGUUUCCUGACGAUUCUUUUCAUGCUGUACUAUGGAGUAUAUGAAGGGGACUUCACACUUCAUCUGGUACUGCCACUG` the bound/input enrichment was 0.0843 ratio.
`CGCAUUUUGAUGGUUGGAUUGGAUGCUGCUGGCAAGACAACCAUUCUGUAUAAACUGAAGUUAGGGGAGAUAGUCACCACCAUUCCUACCAUUGGUUUUAAUGUGGAAACAGUAGAAUAU` has a bound/input enrichment of 0.68 ratio.
For `UGCUUCAGAACCCUUGUCUGUUGUGGUAUUGUAGAUGGGUUUAAGUCAUGGCCUCUUUUGAUAGAUUUUGUUGUGUCAUGUGAGCAAGUCAUUACACGAUCUACUGUUGGAAUGAACUGU`, the bound/input enrichment was 0.252 ratio.
`UUCAAAGAAAGUGACCUGUCUCAUGUCCAGAACAAAAGUGCAUUUUUAUGUGGAGUUAUGAAGACCUACAGGCAAAGAGAGAAACAAGGCAGCAAGGUACAAGAGUCCACGAAAGGGCCC` has a bound/input enrichment of 0.254 ratio.
With `UGAUAAAGCCUUGACUAUGCAUGCUGCUUUCAUUUUGAUAAACUUUUUAUUUUUUAACUAUAGCUUUAUUAGCAAUUCCCAAAUGCUGCAAUUUGCUGAUUUCUUCACACAGACAGCUGG` the bound/input enrichment was 5.65 ratio.
With `GCCACCAUGAAAACCUUCUGUGGGACCCCGGAGUACCUGGCGCCUGAGGUGCUGGAGGACAAUGACUAUGGCCGGGCCGUGGACUGGUGGGGGCUGGGUGUGGUCAUGUACGAGAUGAUG` the bound/input enrichment was 0.275 ratio.
`GGCCAGGAACAGUCUUCACGGGGACAAAGAAUUUUAUCUAUUCCAAUUUGGCCCCCAAACCUAGGCAUCUCUCAGAACUGUGUUUAUGAGGCACAGCAGGUUCCCAAAGUAGAAAAAACA` has a bound/input enrichment of 0.865 ratio.

Other studies, line by line
`PhoQ, residues 284 288 289 292 302 303 SACGEM` gave a fold induction of 1.96 (PhoP, residues 12 14 15 18 19 NHTVL (Escherichia coli, UniProt P23836); Sort-seq, measured: YFP reporter; E. coli; PhoQ-PhoP variant library, with: 10 µM Mg2+; relative to: high Mg2+ state, higher = stronger signaling).

For quick reference, copied from above (sample 2):
With `ACTCTGCT` the E-score was 0.0605.
With `CATTTTAA` the E-score was 0.0481.
With `ACCTGGAA` the E-score was 0.0521.
`CTGTGAAC` gave an E-score of 0.0242.
The E-score of `AGCTGTTG` is reported as 0.0519.
